Measurements of several laboratories.
A part holds a random share of what one study measured.
Sequence of UniProt P08173 (whole entry, looked up): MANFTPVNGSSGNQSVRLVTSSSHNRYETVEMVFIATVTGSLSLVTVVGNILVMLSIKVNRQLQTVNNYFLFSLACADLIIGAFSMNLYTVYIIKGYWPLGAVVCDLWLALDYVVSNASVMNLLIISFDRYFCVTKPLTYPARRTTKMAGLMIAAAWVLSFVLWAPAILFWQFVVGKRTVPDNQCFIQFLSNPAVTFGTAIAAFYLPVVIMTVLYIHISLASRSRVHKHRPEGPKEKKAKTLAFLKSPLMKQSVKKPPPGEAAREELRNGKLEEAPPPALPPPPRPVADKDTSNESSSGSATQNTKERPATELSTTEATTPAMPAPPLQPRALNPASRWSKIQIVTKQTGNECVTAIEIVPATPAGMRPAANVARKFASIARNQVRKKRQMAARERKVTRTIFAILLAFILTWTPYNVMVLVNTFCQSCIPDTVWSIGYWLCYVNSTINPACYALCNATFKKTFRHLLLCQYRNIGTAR
Sequence of UniProt P07550 (whole entry, looked up): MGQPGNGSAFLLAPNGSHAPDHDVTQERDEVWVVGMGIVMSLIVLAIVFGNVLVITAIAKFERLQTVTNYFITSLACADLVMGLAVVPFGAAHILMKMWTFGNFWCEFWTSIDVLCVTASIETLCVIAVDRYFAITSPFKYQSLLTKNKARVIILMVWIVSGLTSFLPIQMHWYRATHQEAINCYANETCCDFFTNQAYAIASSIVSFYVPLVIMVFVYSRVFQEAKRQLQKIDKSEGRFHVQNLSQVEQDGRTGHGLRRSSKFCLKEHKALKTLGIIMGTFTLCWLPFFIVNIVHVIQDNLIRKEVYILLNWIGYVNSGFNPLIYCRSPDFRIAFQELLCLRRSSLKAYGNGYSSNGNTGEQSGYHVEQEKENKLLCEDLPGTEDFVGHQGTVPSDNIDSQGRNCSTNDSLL
Sequence of UniProt Q8TDR2 (whole entry, looked up): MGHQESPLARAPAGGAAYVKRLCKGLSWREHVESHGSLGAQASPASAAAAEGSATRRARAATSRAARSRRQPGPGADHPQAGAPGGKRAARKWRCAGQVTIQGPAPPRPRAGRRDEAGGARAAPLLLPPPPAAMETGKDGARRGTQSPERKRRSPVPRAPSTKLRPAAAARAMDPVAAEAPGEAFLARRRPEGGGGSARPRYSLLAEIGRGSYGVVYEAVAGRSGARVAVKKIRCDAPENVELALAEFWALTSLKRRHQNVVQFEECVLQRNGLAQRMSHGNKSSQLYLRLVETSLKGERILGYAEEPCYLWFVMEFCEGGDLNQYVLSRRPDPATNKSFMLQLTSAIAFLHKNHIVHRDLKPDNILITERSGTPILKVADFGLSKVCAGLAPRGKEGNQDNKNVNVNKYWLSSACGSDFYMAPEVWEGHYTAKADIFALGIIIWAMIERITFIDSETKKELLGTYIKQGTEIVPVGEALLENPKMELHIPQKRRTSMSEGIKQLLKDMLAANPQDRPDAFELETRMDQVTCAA
Sequence of UniProt Q9NYL2 (whole entry, looked up): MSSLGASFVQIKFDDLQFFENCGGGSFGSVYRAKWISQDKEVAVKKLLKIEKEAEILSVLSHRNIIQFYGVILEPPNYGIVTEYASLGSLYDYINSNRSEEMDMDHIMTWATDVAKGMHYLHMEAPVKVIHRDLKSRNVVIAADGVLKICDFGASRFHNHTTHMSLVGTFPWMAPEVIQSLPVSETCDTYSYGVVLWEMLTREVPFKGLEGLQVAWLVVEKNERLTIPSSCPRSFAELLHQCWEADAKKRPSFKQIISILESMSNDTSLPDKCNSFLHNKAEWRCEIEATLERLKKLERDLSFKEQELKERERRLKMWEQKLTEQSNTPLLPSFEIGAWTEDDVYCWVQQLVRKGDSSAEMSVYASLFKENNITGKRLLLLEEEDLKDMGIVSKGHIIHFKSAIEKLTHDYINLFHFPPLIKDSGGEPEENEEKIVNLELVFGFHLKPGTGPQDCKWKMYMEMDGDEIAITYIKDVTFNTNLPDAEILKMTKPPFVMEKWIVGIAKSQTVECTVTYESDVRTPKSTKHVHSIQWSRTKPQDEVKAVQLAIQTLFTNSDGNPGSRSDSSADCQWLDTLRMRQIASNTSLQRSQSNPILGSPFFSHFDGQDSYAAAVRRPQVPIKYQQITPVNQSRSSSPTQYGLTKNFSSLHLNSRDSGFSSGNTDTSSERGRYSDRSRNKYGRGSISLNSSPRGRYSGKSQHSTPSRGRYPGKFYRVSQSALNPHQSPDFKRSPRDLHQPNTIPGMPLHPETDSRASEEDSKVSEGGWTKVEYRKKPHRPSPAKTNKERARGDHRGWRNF
Sequence of UniProt Q13153 (whole entry, looked up): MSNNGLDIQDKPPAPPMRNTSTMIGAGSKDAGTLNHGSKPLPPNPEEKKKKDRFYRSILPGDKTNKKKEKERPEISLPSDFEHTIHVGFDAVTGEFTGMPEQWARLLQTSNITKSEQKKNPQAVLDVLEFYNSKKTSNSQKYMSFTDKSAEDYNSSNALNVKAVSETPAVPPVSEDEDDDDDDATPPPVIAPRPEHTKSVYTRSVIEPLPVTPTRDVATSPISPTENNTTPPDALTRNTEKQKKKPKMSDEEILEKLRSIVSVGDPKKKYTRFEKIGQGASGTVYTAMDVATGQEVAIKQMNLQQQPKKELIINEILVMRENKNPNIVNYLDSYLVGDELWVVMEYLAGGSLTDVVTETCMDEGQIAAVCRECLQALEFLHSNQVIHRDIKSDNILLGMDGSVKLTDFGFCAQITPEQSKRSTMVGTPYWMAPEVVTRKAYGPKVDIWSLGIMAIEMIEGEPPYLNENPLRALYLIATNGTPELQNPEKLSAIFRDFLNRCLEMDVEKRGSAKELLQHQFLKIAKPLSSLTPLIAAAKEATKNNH
Sequence of UniProt P34969 (whole entry, looked up): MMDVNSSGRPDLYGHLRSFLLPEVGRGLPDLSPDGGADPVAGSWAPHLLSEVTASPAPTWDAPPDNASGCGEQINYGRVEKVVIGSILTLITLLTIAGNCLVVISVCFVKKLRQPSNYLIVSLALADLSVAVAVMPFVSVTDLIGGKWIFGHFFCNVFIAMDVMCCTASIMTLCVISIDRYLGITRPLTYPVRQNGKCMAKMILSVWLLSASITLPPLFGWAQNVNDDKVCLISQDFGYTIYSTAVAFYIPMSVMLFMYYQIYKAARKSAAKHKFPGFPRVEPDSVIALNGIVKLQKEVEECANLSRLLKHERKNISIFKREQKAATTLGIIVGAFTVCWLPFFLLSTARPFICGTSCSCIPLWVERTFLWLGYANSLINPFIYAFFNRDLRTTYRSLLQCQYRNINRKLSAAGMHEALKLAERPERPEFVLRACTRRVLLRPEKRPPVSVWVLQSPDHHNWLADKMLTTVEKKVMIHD

Series 1 — observed: enzyme activity; action: inhibitor; tested at: 10 µM
Target: Calcium/calmodulin-dependent protein kinase type II subunit alpha (CAMK2A, Homo sapiens, UniProt Q9UQM7)
Sequence of UniProt Q9UQM7 (whole entry, looked up): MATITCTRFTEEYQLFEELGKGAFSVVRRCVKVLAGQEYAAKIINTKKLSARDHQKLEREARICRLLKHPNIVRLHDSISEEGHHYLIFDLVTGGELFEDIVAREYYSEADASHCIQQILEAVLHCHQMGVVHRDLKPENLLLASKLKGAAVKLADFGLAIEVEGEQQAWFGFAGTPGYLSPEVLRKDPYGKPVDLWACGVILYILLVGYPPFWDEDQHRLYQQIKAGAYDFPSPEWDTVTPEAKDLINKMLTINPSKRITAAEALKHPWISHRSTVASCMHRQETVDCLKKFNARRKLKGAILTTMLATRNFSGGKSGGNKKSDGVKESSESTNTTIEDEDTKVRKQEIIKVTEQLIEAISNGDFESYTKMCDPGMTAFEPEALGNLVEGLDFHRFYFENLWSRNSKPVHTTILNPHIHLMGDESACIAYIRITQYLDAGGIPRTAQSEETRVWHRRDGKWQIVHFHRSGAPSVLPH
| SMILES | inhibition [%] |
| --- | --- |
| CCOc1ccccc1C(N)=O | -6 |
| O=c1cc(-c2ccccc2)oc2cccc(O)c12 | 2 |
| O=C1C[C@@H](c2ccc(O)cc2)Oc2cc(O)ccc21 | -68 |

Series 2 — cell line: A-375; tested at: 100 µM; time: 18 h
| Structure (SMILES) | viability |
| --- | --- |
| CC1=C(C/C=C(\C)CCC[C@H](C)CCC[C@H](C)CCCC(C)C)C(=O)c2ccccc2C1=O | 81.9% |
| CC1=C(/C=C/C(C)=C/C=C/C(C)=C/CO)C(C)(C)CCC1 | 45.8% |
| CN(C)CCc1c[nH]c2ccc(C[C@H]3COC(=O)N3)cc12 | 78.8% |

Series 3 — observed: kinase activity; action: inhibitor; tested at: 1 µM
SMILES: CC(C)S(=O)(=O)c1ccc2nccc(Nc3ccc4sc(C5CCCC5)nc4c3)c2c1.Cl
| target | remaining activity |
| --- | --- |
| Mitogen-activated protein kinase kinase kinase 20 (MAP3K20, Homo sapiens, UniProt Q9NYL2) | 71% |
| Serine/threonine-protein kinase 35 (STK35, Homo sapiens, UniProt Q8TDR2) | 97% |
| Serine/threonine-protein kinase PAK 1 (PAK1, Homo sapiens, UniProt Q13153) | 82% |

Series 4 — observed: enzyme activity; action: inhibitor; tested at: 0.5 µM; baseline: control
Target: Protein-tyrosine kinase 6 (PTK6, Homo sapiens, UniProt Q13882)
Sequence of UniProt Q13882 (whole entry, looked up): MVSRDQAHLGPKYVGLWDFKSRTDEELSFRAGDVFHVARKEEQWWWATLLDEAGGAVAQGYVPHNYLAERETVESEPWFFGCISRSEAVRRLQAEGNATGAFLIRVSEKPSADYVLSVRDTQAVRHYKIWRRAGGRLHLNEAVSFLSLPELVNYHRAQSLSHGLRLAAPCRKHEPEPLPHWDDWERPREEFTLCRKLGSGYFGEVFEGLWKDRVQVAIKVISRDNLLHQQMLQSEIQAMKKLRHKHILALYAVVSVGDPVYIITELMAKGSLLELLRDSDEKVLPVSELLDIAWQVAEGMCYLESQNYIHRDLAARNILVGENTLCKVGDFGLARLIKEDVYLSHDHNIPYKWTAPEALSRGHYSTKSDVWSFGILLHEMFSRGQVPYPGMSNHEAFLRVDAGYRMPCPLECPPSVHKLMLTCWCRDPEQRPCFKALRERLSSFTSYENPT
| SMILES | remaining activity |
| --- | --- |
| Cc1ccc(NC(=O)c2ccc(CN3CCN(C)CC3)cc2)cc1Nc1nc(-c2cccnc2)cs1 | 79.2% |
| CO[C@H]1C[C@@H]2CC[C@@H](C)[C@@](O)(O2)C(=O)C(=O)N2CCCC[C@H]2C(=O)O[C@H]([C@H](C)C[C@@H]2CC[C@@H](O)[C@H](OC)C2)CC(=O)[C@H](C)/C=C(\C)[C@@H](O)[C@@H](OC)C(=O)[C@H](C)C[C@H](C)/C=C/C=C/C=C/1C | 88% |
| COc1ccc(OC)c2c(=S)c3ccccc3[nH]c12 | 84% |
| Cn1sc(=O)n(Cc2ccccc2)c1=O | 96.7% |
| N#CC(C#N)=C(N)/C(C#N)=C/c1ccc(O)cc1 | 84.9% |
| COc1cc2nccc(Oc3ccc(NC(=S)NC(=O)c4ccccc4C)cc3)c2cc1OC | 33.9% |
| COc1cc2ncnc(Nc3ccc(Oc4ccccc4)cc3)c2cc1OC | -0.0383% |
| O=C(CCCc1ccc(-c2ccccc2F)cc1)Nc1ccc(O)cc1 | 102% |
| Cc1cccc(-c2[nH]c(C(C)(C)C)nc2-c2ccc3c(c2)OCO3)n1 | 87.7% |
| Nc1[nH]nc2nc3ccccc3nc12 | 84.1% |
| COc1ccc(CNC(=O)Nc2ncc([N+](=O)[O-])s2)cc1 | 99.6% |
| O=C(Nc1cccc(Nc2cc(Nc3cccc(C(F)(F)F)c3)ncn2)c1)C1CC1 | 98.4% |
| CNC(=O)c1cc(Oc2ccc(NC(=O)Nc3ccc(Cl)c(C(F)(F)F)c3)cc2)ccn1 | 96.9% |
| CCOC(=O)c1c(C)[nH]c(/C=C2\C(=O)Nc3ccccc32)c1C | 82.8% |
| Cc1ccc(Nc2nccc(N(C)c3ccc4c(C)n(C)nc4c3)n2)cc1S(N)(=O)=O | 66.2% |
| Cn1c2ccccc2c2c3c(c4c5ccccc5n(CCC#N)c4c21)CNC3=O | 38.7% |

Series 5 — species: human; matrix: microsomes or S9; tested at: 2 µM; time: 0.5 h
| Compound | remaining compound [%] |
| --- | --- |
| O=c1ccn(-c2ccc(Cl)c(-c3ccc(Cl)cc3)c2)[nH]1 | 32.1 |
| COc1ccc(CNC(=O)CCc2nnc3ccc(-c4ccc(Cl)cc4)nn23)c(OC)c1 | 3.64 |
| CC(C)(C)OC(=O)NC(CC(=O)N1CCCCCN1C(=O)c1cccc(C#N)c1)Cc1ccccc1F (centres unmarked) | 44 |
| COc1ccc2ccccc2c1-c1cc(CN)on1 | 37.5 |

Series 6 — observed: cell-free assay; tested at: 10 µM
Structure (SMILES): CS(=O)(=O)c1cc(C2(NC(=O)c3cncc4c3cnn4-c3ccc(F)cc3)CC2)ccn1
| target | inhibition |
| --- | --- |
| Muscarinic acetylcholine receptor M4 (CHRM4, Homo sapiens, UniProt P08173) | 13.3% |
| 5-hydroxytryptamine receptor 7 (HTR7, Homo sapiens, UniProt P34969) | 10.5% |
| Beta-2 adrenergic receptor (ADRB2, Homo sapiens, UniProt P07550) | -7.76% |

For quick reference, copied from above (series 6):
| target | inhibition |
| --- | --- |
| Muscarinic acetylcholine receptor M4 (CHRM4, Homo sapiens, UniProt P08173) | 13.3% |
| 5-hydroxytryptamine receptor 7 (HTR7, Homo sapiens, UniProt P34969) | 10.5% |
| Beta-2 adrenergic receptor (ADRB2, Homo sapiens, UniProt P07550) | -7.76% |
